Assay results of several laboratories.
Lines come from different studies, so protocols differ. ± gives the spread as reported.

C=CC(=O)Nc1cccc(Cn2ncc3cnc(Nc4cnn(CCOC)c4)nc32)c1
percent of control (ERBB3 human; binding, KINOMEscan; 100 nM; lower = stronger binding): 100%

CNS(=O)(=O)Nc1nccc(Cc2c(C)c3ccc(Oc4ncccc4F)cc3oc2=O)c1F
IC50 (OVMANA; cell viability, CellTiter-Glo; 7 days): > 1000 nM

Nc1ncc(-c2cc(-c3cnn(CC(F)(F)F)c3)ncc2F)nc1C(=O)NC1CNCC(F)C1 (stereo not shown)
remaining binding (CAMK1G; KINOMEscan; 1 µM; reference: DMSO control): 100%

COC1CN([C@H]2CC[C@H]([C@@]3(C)Oc4c(Cl)cc(C(=O)NCc5c(SC)cc(C)[nH]c5=O)c(C)c4O3)CC2)C1
log2 fold change (RNA-seq, measured: PLEK2 mouse homolog; mouse, HT-1376 xenograft, whole blood; dose not given; reference: vehicle): 1.73

O=C(N/N=C/c1ccc2c(ccc[n+]2Cc2ccccc2)c1)c1cccc(C(=O)N/N=C/c2ccc3c(ccc[n+]3Cc3ccccc3)c2)n1
ΔTm (hp2 hairpin duplex DNA; FRET melting; 1 µM): 3.6 ± 1.9 °C

C=CC(=O)N1[C@H](c2ccc3c(c2)OCO3)c2[nH]c3ccccc3c2C[C@@H]1C(=O)N1CCN(C)CC1
relative co-enrichment (human cyclin E1 N112C-3xFLAG:CDK2; co-IP with TMT proteomics, measured: TK1; concentration not given, P04183; reference: wild type DMSO): 80%

C[n+]1ccc(/C=N/NC(=O)C(=O)N/N=C/c2cc[n+](C)cc2)cc1
ΔTm (MYC parallel G4 DNA; FRET melting; 1 µM, DNA 0.2 µM, with: duplex DNA competitor 10 µM): 4 ± 0.8 °C

COc1cccc(/C=N/Nc2nc(Nc3ccccc3)nc(-n3nc(C)cc3C)n2)c1O
Emax (Mus musculus; gene silencing, high-content imaging; LDR reporter GFP cells; 30 h, retest run 1): 83%

C[n+]1ccc(/C=N/NC(=O)c2cncc(C(=O)N/N=C/c3cc[n+](C)c4ccccc34)n2)c2ccccc21
ΔTm (hp2 hairpin duplex DNA; FRET melting; 1 µM, with: ds26 10 µM): 0.7 °C

Cc1ncsc1-c1ccc(C(C)NC(=O)C2CC(O)CN2C(=O)C(NC(=O)CCCCCCCCCCN2CCCC(Nc3ncc(Cl)c(Nc4ccccc4S(=O)(=O)C(C)C)n3)C2)C(C)(C)C)cc1 (stereo not shown)
log2 fold change (22Rv1; RNA-seq, measured: XRCC2 mRNA; concentration not given; reference: DMSO): -1.1

A few entries again:
O=C(N/N=C/c1ccc2c(ccc[n+]2Cc2ccccc2)c1)c1cccc(C(=O)N/N=C/c2ccc3c(ccc[n+]3Cc3ccccc3)c2)n1
ΔTm (hp2 hairpin duplex DNA; FRET melting; 1 µM): 3.6 ± 1.9 °C

C=CC(=O)N1[C@H](c2ccc3c(c2)OCO3)c2[nH]c3ccccc3c2C[C@@H]1C(=O)N1CCN(C)CC1
relative co-enrichment (human cyclin E1 N112C-3xFLAG:CDK2; co-IP with TMT proteomics, measured: TK1; concentration not given, P04183; reference: wild type DMSO): 80%
